Published values gathered from unrelated publications.
Each line is one published result; not all experiments were run side by side. “And” joins repeats or separate records; there may be more than shown. Converted amounts (≈) assume the structure as drawn.

SMILES	tested on	assay	test system	conditions	scale	measurement	value
COc1cc2c(Oc3ccc4[nH]c(C)cc4c3F)ccnc2cc1OCC1(N)CC1	–	–	paediatric refractory sarcoma patients	8 mg	–	T-wave abnormality incidence	0%
CC(CCc1ccccc1)NC(C)C(O)c1ccc(O)cc1 (stereo not drawn)	MCF-10A	CellTiter-Glo	–	concentration not given	relative to: normalised, mean of replicates	viability	96.8%
C[C@H]1CN(c2n[nH]c3nc(N[C@H]4CC[C@H](NS(=O)(=O)CCC(F)(F)F)CC4)ncc23)CCO1	PRKACA (Homo sapiens, UniProt P17612)	inhibitor, Kinobeads competition profiling	–	0.16 µM	relative to: vehicle	relative abundance	0.76
CCC(=O)CCCCC[C@@H]1NC(=O)[C@H]2CCCCN2C(=O)[C@H]([C@@H](C)CC)NC(=O)[C@H](Cc2cn(OC)c3ccccc23)NC1=O	OCI-Ly1	–	–	0.5 µM, 120 h	–	viability	8.08%
C=C[C@]12CN(C)[C@@H]3[C@H]4CO[C@H](C[C@H]41)[C@]1(C(=O)Nc4ccccc41)[C@@H]32	HT-22	CCK-8	–	up to 100 µM, 24 h	–	viability	no effect
CC[C@H](C)[C@H](NC(=O)[C@H](C)NC(=O)[C@H](CCCCN)NC(=O)[C@H](CC(C)C)NC(=O)[C@H](C)NC(=O)[C@@H](NC(=O)[C@H](Cc1c[nH]cn1)NC(=O)[C@H](CC(C)C)NC(=O)[C@@H](NC(=O)[C@@H](NC(=O)[C@H](CCCCN)NC(=O)[C@H](C)NC(=O)[C@H](C)NC(=O)[C@H](CO)NC(=O)[C@H](CCCCN)NC(=O)[C@H](Cc1ccccc1)NC(=O)[C@@H](NC(=O)[C@H](CCCCN)NC(=O)[C@H](CC(C)C)NC(=O)[C@H](Cc1ccccc1)NC(=O)[C@H](CO)NC(=O)[C@H](CCCCN)NC(=O)[C@H](Cc1c[nH]c2ccccc12)NC(=O)[C@H](CCCCN)NC(C)=O)[C@@H](C)O)[C@@H](C)O)C(C)C)[C@@H](C)O)C(=O)N[C@@H](CO)C(=O)N[C@@H](CO)C(N)=O	Pseudomonas aeruginosa	–	ATCC 27853	–	–	MBC range	8 µg/mL (≈ 2.73 µM)
c1ccc([C@@H]2C[C@H]2NC2CCNCC2)cc1	OCI-Ly1	–	–	0.1 µM, 120 h	–	viability	200%
COc1c(CCC[P+](c2ccccc2)(c2ccccc2)c2ccccc2)cc2c(c1OC)OCO2.[I-]	DU-145	SRB	–	–	–	GI50	-5.45 log M
CC(C)[C@H](N)C(=O)N1CCC[C@H]1B(O)O	Ker-CT wild type	cell death, CellTiter-Glo	–	2 µM	–	viability	84.6% and 81.9% and 85.1%
COC[C@@H]([C@H](O)[C@H](O)C(=O)NCC[C@H](C)c1nc(/C=C/C[C@@H]2O[C@]3(C[C@@H](O)[C@@H]2C)O[C@H]([C@H](C[C@H](O)[C@H](C)[C@H](O)[C@H](C)/C=C(C)/C(C)=C/C=C/C(C)=C\C#N)OC)[C@H](OP(=O)(O)O)C3(C)C)co1)N(C)C	MCF-10A	CellTiter-Glo	–	concentration not given	relative to: normalised luminescence	viability	120%
Cc1nn(-c2nc3ccc(Cl)c(Cl)c3[nH]2)c(O)c1C1OC(=O)c2ccccc21 (stereo not drawn)	RAW-ISG	CCK-8	–	30 µM	–	viability	97.8% and 88.5% and 102% and 96.2% and 95.5%
C/C=C1\CN(C)[C@H]2C[C@@]3(C(=O)N(OC)c4ccccc43)[C@H]3C[C@@H]1[C@@H]2CO3	HT-22	CCK-8	–	up to 100 µM, 24 h	–	viability	no effect

For quick reference, copied from above:
SMILES	tested on	assay	test system	conditions	scale	measurement	value
CC(CCc1ccccc1)NC(C)C(O)c1ccc(O)cc1 (stereo not drawn)	MCF-10A	CellTiter-Glo	–	concentration not given	relative to: normalised, mean of replicates	viability	96.8%
